{"data": "Experimental data pooled from the literature", "cell line": "MT4", "note": "Each line is one published result; not all experiments were run side by side."}
{"SMILES": "O=C(CCN(CCC(=O)NC(Cc1c[nH]c2ccccc12)C(=O)O)C(=O)c1cc(C(=O)N(CCC(=O)NC(Cc2c[nH]c3ccccc23)C(=O)O)CCC(=O)NC(Cc2c[nH]c3ccccc23)C(=O)O)cc(C(=O)N(CCC(=O)NC(Cc2c[nH]c3ccccc23)C(=O)O)CCC(=O)NC(Cc2c[nH]c3ccccc23)C(=O)O)c1)NC(Cc1c[nH]c2ccccc12)C(=O)O (centres unmarked)", "time": "5 (unit not given)", "CC50 [µM]": "> 100"}
{"SMILES": "Cc1cccc(-c2cc(C#N)cc(Oc3c(C(F)(F)F)ccn(Cc4n[nH]c(=O)n4C)c3=O)c2)c1", "read-out": "cell growth or viability", "method": "MTT", "CC50 [µM]": 26.4}
{"SMILES": "Cc1cc(C)cc(S(=O)(=O)c2c(C(N)=O)[nH]c3ccc(Cl)cc23)c1", "read-out": "cell growth or viability", "method": "MTT", "time": "5 days", "CC50 [µM]": 5.52}
{"SMILES": "COc1cccc2c(Oc3c(C(F)(F)F)ccn(Cc4n[nH]c(=O)n4C)c3=O)cc(C)nc12", "read-out": "cell growth or viability", "method": "MTT", "CC50 [µM]": 244}
{"SMILES": "N#Cc1ccc(Nc2nccc(C(=O)c3c(F)cc(F)cc3F)n2)cc1", "read-out": "cell growth or viability", "method": "ATP luminescence", "time": "5 days", "CC50 [µM]": 57.1}
{"SMILES": "O=C(CCN(CCC(=O)NC(Cc1c[nH]c2ccccc12)C(=O)O)C(=O)CCOCC(COCCC(=O)N(CCC(=O)NC(Cc1c[nH]c2ccccc12)C(=O)O)CCC(=O)NC(Cc1c[nH]c2ccccc12)C(=O)O)(COCCC(=O)N(CCC(=O)NC(Cc1c[nH]c2ccccc12)C(=O)O)CCC(=O)NC(Cc1c[nH]c2ccccc12)C(=O)O)COCCC(=O)N(CCC(=O)NC(Cc1c[nH]c2ccccc12)C(=O)O)CCC(=O)NC(Cc1c[nH]c2ccccc12)C(=O)O)NC(Cc1c[nH]c2ccccc12)C(=O)O (centres unmarked)", "time": "5 (unit not given)", "CC50 [µM]": "> 100"}
{"SMILES": "COc1cc(F)c(C(=O)c2ccnc(Nc3ccc(C#N)cc3)n2)c(F)c1", "read-out": "cell growth or viability", "method": "ATP luminescence", "time": "5 days", "CC50 [µM]": 57.1}
{"SMILES": "Cc1cc(C)cc(S(=O)(=O)c2c(C(=O)NC3CC4(C3)CN(Cc3n[nH]c(=O)[nH]3)C4)[nH]c3ccc(Cl)cc23)c1", "read-out": "cell growth or viability", "method": "MTT", "time": "5 days", "CC50 [µM]": 65.6}
